Measurements gathered from unrelated publications.
Numbers after ± are the reported error.

SMILES	target or system	test	system	conditions	scale	quantity	result
COc1ccc(-n2cc(C(=O)N3C[C@]4(OC(=O)c5ccccc5NC(C)=O)CC[C@H](OC)[C@@]56[C@@H]4C[C@@H]([C@@H]35)[C@@]3(O)C[C@H](OC)[C@H]4C[C@@H]6[C@]3(O)[C@H]4OC)nn2)cc1	RAW264.7	NO release, inhibitor, Griess		24 h, LPS-stimulated		IC50	12.9 µM
COc1cc(CNC(=O)C[C@H](C)CCC=C(C)C)ccc1OCc1cn(-c2cccc([N+](=O)[O-])c2)nn1	HL-60(TB)	SRB		10 µM, 48 h		growth	100%
C=CCc1cc2c(c(OC)c1OC)OCO2	DU-145	cell growth or viability, MTT		72 h		GI50	> 250 µM
N=C(N)NCCC[C@@H]1NC(=O)[C@H](CCCCNC(=O)CC[C@H](NC(=O)CCOCCOCCOCCOCCNC(=O)CC[C@H](NC(=O)CN2CCN(CC(=O)O)CCN(CC(=O)O)CCN(CC(=O)O)CC2)C(=O)NCCOCCOCCOCCOCCC(=O)N[C@@H](CCC(=O)NCCCC[C@@H]2NC(=O)[C@@H](Cc3ccccc3)NC(=O)[C@H](CC(=O)O)NC(=O)CNC(=O)[C@H](CCCNC(=N)N)NC2=O)C(=O)NCCCC[C@@H]2NC(=O)[C@@H](Cc3ccccc3)NC(=O)[C@H](CC(=O)O)NC(=O)CNC(=O)[C@H](CCCNC(=N)N)NC2=O)C(=O)NCCCC[C@@H]2NC(=O)[C@@H](Cc3ccccc3)NC(=O)[C@H](CC(=O)O)NC(=O)CNC(=O)[C@H](CCCNC(=N)N)NC2=O)NC(=O)[C@@H](Cc2ccccc2)NC(=O)[C@H](CC(=O)O)NC(=O)CNC1=O [indium-111 labelled]			female athymic nude mice, bone	intravenous, 3 µCi, 0.5 h, U-87 MG glioma xenograft		tissue uptake	1.89 ± 0.37 %ID/g
COc1cc(CNC(=O)C[C@H](C)CCC=C(C)C)ccc1OCc1cn(-c2ccc(C#N)cc2)nn1	HL-60(TB)	SRB		10 µM, 48 h		growth	70.8%
COC[C@@H](NC(C)=O)C(=O)NCc1ccc(N=[N+]=[N-])cc1	CAD	whole-cell patch clamp		100 µM, at -50 mV		fraction slow-inactivated channels	0.68 ± 0.07
CC(=O)OC[C@H]1O[C@@H](Sc2sc(C(=O)c3ccc(C)cc3)c(N)c2-c2nc3ccccc3s2)[C@H](OC(C)=O)[C@@H](OC(C)=O)[C@H]1OC(C)=O	HL-60(TB)			10 µM, 48 h		growth	82.7%
CC/C=C\C/C=C\C/C=C\C/C=C\C/C=C\C/C=C\CCC(=O)Nc1ccn(C2OC(CO)C(O)C2(F)F)c(=O)n1 (stereo not drawn)	HL-60(TB)					GI50	0.029 µM
CC(=O)OC[C@H]1O[C@@H](Sc2sc(C(=O)c3ccc(Br)cc3)c(N)c2-c2nc3ccccc3s2)[C@H](OC(C)=O)[C@@H](OC(C)=O)[C@@H]1OC(C)=O	HL-60(TB)			10 µM, 48 h		growth	113%
CC[C@H](C)[C@@H]1NC(=O)[C@H](CCCCN)NC(=O)[C@H](CCCCN)NC(=O)[C@H](C)NC(=O)[C@H](C(C)C)NC(=O)[C@H](C)NC(=O)[C@H](CC(C)C)NC(=O)[C@H](CC(C)C)NC(=O)[C@H](C)NC(=O)[C@H](CCCCN)NC(=O)[C@H](CC(C)C)NC(=O)[C@H](CC(N)=O)NC(=O)[C@H](CC(C)C)NC(=O)[C@@H](N)CSSC[C@@H](C(N)=O)NC(=O)[C@H](CC(C)C)NC1=O	HMEC-1	cell growth or viability, MTT		24 h		IC50	39.5 µM
CC[C@H](C)[C@H](NC(=O)[C@H](C)NC(=O)CNC(=O)[C@H](CCCCN)NC(=O)[C@H](CC(N)=O)NC(=O)[C@H](CO)NC(=O)CN)C(=O)N[C@H](C(=O)NCC(=O)N[C@@H](CC(C)C)C(=O)N[C@@H](CCSC)C(=O)O)[C@@H](C)CC	rat primary cortical neurons			10 µM	reference: control	cell survival	54.6%
COc1cc(CNC(=O)C[C@H](C)CCC=C(C)C)ccc1OCc1cn(-c2ccc(Br)cc2)nn1	HL-60(TB)	SRB		10 µM, 48 h		growth	88.4%
Cc1sc2c(c1C)C(c1ccc(Cl)cc1)=N[C@H](CC(=O)OC(C)(C)C)c1nnc(C)n1-2	NMC-797	qRT-PCR, item: Rad21 and Ran		250 nM, 48 h		mRNA level	no effect
COc1cc(CNC(=O)C[C@H](C)CCC=C(C)C)ccc1OCc1cn(-c2ccccc2)nn1	HL-60(TB)	SRB		10 µM, 48 h		growth	93%
CN[C@](C)(C[18F])C(=O)O	A549 tumour model		host not given, tumour	2 h, tumour-bearing		tracer uptake	3.6 %ID/g

Some of these lines once more:
SMILES	target or system	test	system	conditions	scale	quantity	result
COC[C@@H](NC(C)=O)C(=O)NCc1ccc(N=[N+]=[N-])cc1	CAD	whole-cell patch clamp		100 µM, at -50 mV		fraction slow-inactivated channels	0.68 ± 0.07
CC(=O)OC[C@H]1O[C@@H](Sc2sc(C(=O)c3ccc(C)cc3)c(N)c2-c2nc3ccccc3s2)[C@H](OC(C)=O)[C@@H](OC(C)=O)[C@H]1OC(C)=O	HL-60(TB)			10 µM, 48 h		growth	82.7%
